Measurements pooled from the literature.
A part holds a random share of what one study measured. Changes are numbered by the printed parent chain.

Sample 1 — technique: universal PBM; molecule type: double-stranded DNA, one strand shown; matrix: in vitro; concentration: not given; direction: higher = stronger binding
Target: Sal-like protein 4, full length isoform B (SALL4, Homo sapiens, UniProt Q9UJQ4-2, residues 1-616)
Notes: 8-mer, flanks averaged, mean of replicates
Target sequence (chain): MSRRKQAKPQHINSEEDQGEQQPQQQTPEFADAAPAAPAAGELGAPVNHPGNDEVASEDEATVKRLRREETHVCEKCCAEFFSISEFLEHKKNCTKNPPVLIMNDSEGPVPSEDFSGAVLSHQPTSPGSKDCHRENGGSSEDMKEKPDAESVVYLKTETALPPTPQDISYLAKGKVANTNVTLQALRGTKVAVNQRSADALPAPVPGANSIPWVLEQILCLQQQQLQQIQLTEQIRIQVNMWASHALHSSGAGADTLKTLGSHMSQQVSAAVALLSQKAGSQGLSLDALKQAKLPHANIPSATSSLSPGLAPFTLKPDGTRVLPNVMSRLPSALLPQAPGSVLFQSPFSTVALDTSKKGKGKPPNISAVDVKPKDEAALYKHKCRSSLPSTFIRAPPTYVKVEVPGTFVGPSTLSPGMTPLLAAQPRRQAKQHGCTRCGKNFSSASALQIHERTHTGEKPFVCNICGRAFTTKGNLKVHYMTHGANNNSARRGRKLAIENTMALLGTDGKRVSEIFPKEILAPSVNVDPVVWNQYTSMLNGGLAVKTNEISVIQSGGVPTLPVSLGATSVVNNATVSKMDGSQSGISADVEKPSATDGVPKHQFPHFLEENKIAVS
Oligonucleotide	E-score
CTAAGATA	0.106
AACACACT	0.0806
TGCCAGCA	-0.0286
AACCTGAG	-0.176
AGGCGGGG	-0.117
ATCTAGAG	0.0271
GATACGCC	-0.146
GCGAGTGA	-0.0675
CATGTCGC	-0.0664
CAATCAGC	-0.0887
GTCAACTA	0.162
GGGCCTAC	-0.321
AGTACCGC	-0.152
GGATGGCC	-0.275
CACTCGTC	-0.134
CAGAATCA	-0.0233
ACGCTCCA	-0.0615
CCCTCACG	-0.278
GTTTCTTA	0.051
CTAACACA	0.163
AGTCCACA	-0.162

Sample 2 — technique: protein-binding microarray; molecule type: double-stranded DNA, one strand shown; matrix: in vitro; concentration: 2540 nM top; notes: 60-bp whole probe; with: salmon DNA 0.4 mg/ml; reference: random background probes; direction: higher = stronger binding; all sequences stand within: GCCTAGCAC … GTCTTGATTCGCTTGACGCTGCTG
Target: Interferon regulatory factor 3, full length, phosphomimetic (IRF3, Homo sapiens, UniProt Q14653, residues 1-427, S386D/S396D/S398D/S402D/T404D/S405D)
Construct (chain): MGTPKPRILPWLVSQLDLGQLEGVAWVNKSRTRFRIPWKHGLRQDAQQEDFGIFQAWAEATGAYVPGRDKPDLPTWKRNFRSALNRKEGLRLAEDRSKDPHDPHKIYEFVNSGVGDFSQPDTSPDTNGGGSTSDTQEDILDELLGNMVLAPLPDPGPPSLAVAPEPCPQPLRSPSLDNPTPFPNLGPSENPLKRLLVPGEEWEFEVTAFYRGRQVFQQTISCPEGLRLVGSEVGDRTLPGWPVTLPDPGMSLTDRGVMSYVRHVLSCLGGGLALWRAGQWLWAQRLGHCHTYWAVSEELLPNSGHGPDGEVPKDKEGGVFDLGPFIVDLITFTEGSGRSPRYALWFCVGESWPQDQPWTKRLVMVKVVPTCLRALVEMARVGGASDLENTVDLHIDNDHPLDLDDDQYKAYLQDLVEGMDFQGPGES
Oligonucleotide	fitted relative affinity
TTAGGTTTCGACACTGGGTCAGTGCTA	2.43 z-score
TCAGTTTTGAGTTTTCCACTGTGCTAG	1.53 z-score
TCAGGAAATGGGAAACCCACTGTGCTA	0.549 z-score
GACGATATCAGTATCGAGCCGTGCTAG	0.904 z-score
ACATATATACAGAGATAGATGTGCTAG	0.669 z-score
GAGGGTATCGGTTTCGGGACGTGCTAG	6.19 z-score
GACGGTTTACTTTTCCTGACGTGCTAG	3.65 z-score
TTAGATCTCAGTATCGAATAGTGCTAG	0.74 z-score
TTTTTTTTGGAATGTCTTCCCGTGCTA	0.514 z-score
GACGGTCTCCTTATCCTGTCGTGCTAG	2.94 z-score
CCTCTTCTGGATCTCAGACTGTGCTAG	1.87 z-score
TTAGGACTGGGTTTCGGTGAGTGCTAG	1.51 z-score
TCACTTCTGTTTTTGCTACTGTGCTAG	2.12 z-score
ACCATTTTTTTTCACTATTGGTGCTAG	1.73 z-score
TTAGGTTTCGGTATCGTTTAGTGCTAG	8.45 z-score
TCACTCTTCTTTTTTTTACTGTGCTAG	1.91 z-score
CACGGTTTCGGTTTCGGGACGTGCTAG	10.7 z-score
TTAGAACTGGGGCTTCGATTAGTGCTA	-0.981 z-score
GACGGTATCGGTTGCGGGACGTGCTAG	2.79 z-score
GACGATTTCGTGTATCGAGACGTGCTA	1.09 z-score
GACGATTTCGTGACTGGAGACGTGCTA	0.798 z-score
GAGGGTTTCGACTATCGGGACGTGCTA	1.42 z-score

Sample 3 — technique: competition protein-binding microarray; molecule type: double-stranded DNA, one strand shown; matrix: in vitro; concentration: 2 µM; with: Cbf1 competitor, 0.05 µM; direction: higher = stronger binding; all sequences stand within: … GTCTTGATTCGCTTGACGCTGCTG
Target: Phosphate system positive regulatory protein PHO4, full length, GST-tagged (PHO4, Saccharomyces cerevisiae, UniProt P07270, residues 1-312)
Notes: whole 60-bp probe, lowest competitor level
Construct (chain): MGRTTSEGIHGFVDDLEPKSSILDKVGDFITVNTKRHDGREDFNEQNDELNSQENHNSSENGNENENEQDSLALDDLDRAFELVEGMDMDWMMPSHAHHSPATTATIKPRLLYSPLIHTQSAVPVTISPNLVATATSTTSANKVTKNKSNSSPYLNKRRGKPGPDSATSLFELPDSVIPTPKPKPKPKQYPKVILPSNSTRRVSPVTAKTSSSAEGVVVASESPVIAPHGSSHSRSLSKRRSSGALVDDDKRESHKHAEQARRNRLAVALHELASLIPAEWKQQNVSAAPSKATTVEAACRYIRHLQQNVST
Oligonucleotide	fluorescence intensity
AGAACACCTTAGAACCACATGATGCGTACCTACTAC	7470 a.u.
CGTCCTAGTGATTGTATCGTGGGTGCCATGAGGAAG	9030 a.u.
TTGGTAGAGGCGGTTCTCGTGGTGAAGCCCCTGGTG	5580 a.u.
ATAGAACGCAGAGCCCACGTGTGCCTGGCACTTGGC	16700 a.u.
ATTATCAATTGCCATCACGTGCAAACCGAAGAAATG	17400 a.u.
GAGAGCCTTGGTTGTCATGCCCTGAGGACCCAATGT	3950 a.u.
ATAGAAAACTGCATAGTCGTGCTTTCAAACCTTTCT	7380 a.u.
CATGATAATCTGCAACACAATCAAGGCCAGATTACT	3570 a.u.
TGGCCAAGGTTGTTTTCCGTGACTCGTACAAGTACA	3050 a.u.
CCCGCCCCCGGCCAGCACGCGCCTCTGCCTGAGACC	10500 a.u.
CTCTCGAAGTTTGGAAACGTGGTGAGTGCCTTGACG	15100 a.u.
CTTCTGTAAATTTGAAATGTGGGTGGACGCGCCCCG	5360 a.u.
GCAATAGACACCACAAACGTGCGGAAGAAACCGCAA	11400 a.u.
CGGGGTTAAGTTTCGCACGTGTTTTGCTTGCAGCAG	15400 a.u.
AATAAAGAGAAAAACCATGTGCGGTAGCAGCCTGCC	10100 a.u.
CGGGGTTAAGTTTGTTTAGTGGGTGGCTTGCAGCAG	4320 a.u.
GTCTTCTGCCCCGGTCATATGAGTGGTATTCTTCTA	4710 a.u.
ATTTATCATTTAAATCACATGGACACCCACCGAACT	8820 a.u.
AAGGTTGTTAACTTCCACGTTCAGGTTATTCACTAC	8850 a.u.
CGCTACCAACTGCGCCATGTGCCCAGAATTTCTGTA	12900 a.u.
CGCCAAAGTTCTTGCCTCGTGGTCGTTGGCCTTCGC	10500 a.u.
CTTCTGTAAATTTGTTAAGTGGGTGGACGCGCCCCG	4050 a.u.
TACCAATCGATTTGTCACCTGCAAAAGGACCTGGAT	3780 a.u.
TTGTACATTTTCCATCACGTGCAAAATTTGTTTCAA	15800 a.u.
GTGGCAGGAGGGTTTCTATTTAGTGTTCGGTAAAGG	5000 a.u.

Sample 4 — technique: RNA Bind-n-Seq; molecule type: RNA; matrix: in vitro; concentration: 365 nM; reference: no-protein control; direction: higher = stronger binding
Target: RNA binding protein fox-1 homolog 2, RRM domain, GST-SBP tag (RBFOX2, Homo sapiens, UniProt O43251-10, residues 100-194)
Notes: natural RNA segment, single round, ends assumed
All sequences stand within: GGGAGUUCUACAGUCCGACGAUC … UGGAAUUCUCGGGUGCCAA
Residues (chain): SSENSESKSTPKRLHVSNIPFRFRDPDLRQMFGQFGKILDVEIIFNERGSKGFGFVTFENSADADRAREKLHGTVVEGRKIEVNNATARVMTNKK
Oligonucleotide	RBNS enrichment (R)
CUGCCUUGGCAAGCCUAUUUUUGUGACCUGGCAGCACAGAUUUAACACUAUUCGUUAAAAGCACUUUUUUUUUAAUGCGUUUAAUCCCUUAUAAAGAAUGCCAAUUAAGU	3.23
AGCCUCGUCUUCUCCUGCCCACAGCCCCUGCCAGAGUUCUUUUGCCCAGCAGAGGCACCCCUCAUGAAGGAAGCCAUUGCACUGUGAAUACUGAACCUGCCUGCUGAACA	1.19
UGUUCUUCUCCACCUCCUCAUGGGAUAGGAACUGAAAGAGAACUCAAGGGUUGUCACUUUCCUAGAGGGUGUGAGCGUUCUGCCAGCCACAACCAUGUCUCAGACUCAAG	0.357
ACUGUCCCAAAUCUGGAAGGUCCAGAGUAAGCAGGAUUCAGGGAGAGGGAGUGGAUAGCAAGUAUCCCAAGAAACCAACCUGUAAGUCAGGUCCAGCCAGUCCAAGCACA	2.31
ACAGGAGCAGCCCACCCAGCAGAAAUACAAUCCGAGCUACAAAGCAUGGGAAAAAGAGACUCUUUUAGGAUCAGAUCUGUGAGCACGUUGGCGAGGAAAAACAAAACAAA	2.07
GAAGUUUAGUUUAAUGUUAGUGCAGUGACGGGAAAUACACAUUAUGCUAAUGUUGAUGACAGAAUUUAUUUGGUUGCCUUGUGUGUUAAUUGAAUGCAUACCUAAUUGUA	1.26
GAAUCAAAGGAAUUCUAGAAAGUAUCUGGGCAGAACGCUAGGAGAGAUCCAAAUUUCCAUUGUCUUGCAAGCAAAGCACGUAUUAAAUAUGAUCUGCAGCCAUUAAAAAG	2.76
AACAAACAAGAAAAAUAACACUAUUAAGGAAGUCACAAUUGGCCAUGGUUUUUGAUCCCAGCUCGCCCACAGCCCUGGCCCCACCUCACCCCAUAGUGGGGGACUGGAGU	0.461
CUCAAAUGCUUAAACUGCUGGCAACAUAUAAUAAAUGCAUGCUAUUCAAUGAAUUUCUGCCUAUGAGGCAUCUGGCCCCUGGUAGCCAGCUCUCCAGAAUUACUUGUAGG	13.9
UUUUGUGGACACAGAUUUUUGUAGUUUCCAUUUUGGAAGGCUAAAGUGUUUUGUUUGUUUGAAACAGUUUUACACUUUCUAAUGUACAGUACUUGAAGUUCGUACUAGAG	0.395
GACUGGGAGGGCCCACUUCAGGGUUCUCCUCUCCCCUCUAAGGCCGAAGAAGGGUCCUUCCCUCUCCCCAAGACUUGGUGUCCUUUCCCUCCACUCCUUCCUGCCACCUG	0.364
AAGGACCCCAUGUGCUAGCCAGAAAUAUACUGUCUCUUGAAGGAAAGCAGGAGCUCAGACUCUUAGAGCCAGCUGUGGCUUCGGACCCAAGGCCUGACCUAGGCUGCUAU	0.319

Sample 5 — target: CCNE2, cyclin fold, Cln2 fusion (human); technique: yeast growth competition, sequencing; matrix: yeast; notes: weak parent motif; reference: not given; direction: higher = stronger binding
Starting sequence: USP37 docking peptide (human); PSAKRSLGFLPQP; partner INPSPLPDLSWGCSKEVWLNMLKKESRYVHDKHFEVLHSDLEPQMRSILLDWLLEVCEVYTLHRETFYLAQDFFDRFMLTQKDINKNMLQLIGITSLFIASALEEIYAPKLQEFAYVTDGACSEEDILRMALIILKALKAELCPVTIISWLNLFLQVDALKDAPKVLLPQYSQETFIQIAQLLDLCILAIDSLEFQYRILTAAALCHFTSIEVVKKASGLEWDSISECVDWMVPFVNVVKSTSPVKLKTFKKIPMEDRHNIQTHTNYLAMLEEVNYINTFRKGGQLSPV
Variant	normalised enrichment score
G8A	0.464
F9A	-0.277
P11A	-0.0426
P1A	0.112
R5A	0.162
S6A	0.702

Excerpt of the above (sample 2):
Oligonucleotide	fitted relative affinity
GACGGTCTCCTTATCCTGTCGTGCTAG	2.94 z-score
CCTCTTCTGGATCTCAGACTGTGCTAG	1.87 z-score
TTAGGACTGGGTTTCGGTGAGTGCTAG	1.51 z-score
TCACTTCTGTTTTTGCTACTGTGCTAG	2.12 z-score
ACCATTTTTTTTCACTATTGGTGCTAG	1.73 z-score
TTAGGTTTCGGTATCGTTTAGTGCTAG	8.45 z-score
TCACTCTTCTTTTTTTTACTGTGCTAG	1.91 z-score
CACGGTTTCGGTTTCGGGACGTGCTAG	10.7 z-score
TTAGAACTGGGGCTTCGATTAGTGCTA	-0.981 z-score
